Experimental data pooled from the literature.
Parts stem from different laboratories: compare values within a part only.

Study 1
Target: Histone acetyltransferase KAT6A, both winged helices, GST fusion (KAT6A, Homo sapiens, UniProt Q92794, residues 1-181)
Technique: protein binding microarray
Molecule type: double-stranded DNA, one strand shown
Matrix: in vitro
Tested at: not given
Setting: 8-mer, flanks averaged, mean of 2 arrays, mostly near background
Baseline: not given
Direction: higher = stronger binding
Residues (chain): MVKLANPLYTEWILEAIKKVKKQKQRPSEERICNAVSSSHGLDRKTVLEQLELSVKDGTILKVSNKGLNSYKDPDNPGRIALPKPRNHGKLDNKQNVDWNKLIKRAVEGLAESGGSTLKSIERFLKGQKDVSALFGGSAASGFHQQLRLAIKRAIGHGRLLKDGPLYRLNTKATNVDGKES
Oligonucleotide	E-score
TGATGACA	-0.108
GGATTGAC	0.00458
GGAAATTA	-0.051
CAATCTGG	-0.209
ACTGATAA	-0.0861
CCACAAGC	-0.064
TCCGTACA	0.242
GACCGGAC	0.153
CCCTATCC	-0.222
TGTTGAAA	0.0174
CAAGTTAG	-0.0694
AGAATGAG	-0.24
GAGGAGAA	-0.137
ACCGATCT	0.0526
GCTAATTA	0.0213
AGCCCCGC	0.0952
GGTAGGCA	-0.0512
AAGGGGAC	-0.172
CAATTGTC	-0.0605

Study 2
Target: Sal-like protein 4, full length isoform A (SALL4, Homo sapiens, UniProt Q9UJQ4, residues 1-1053)
Sequence of UniProt Q9UJQ4 (whole entry, looked up): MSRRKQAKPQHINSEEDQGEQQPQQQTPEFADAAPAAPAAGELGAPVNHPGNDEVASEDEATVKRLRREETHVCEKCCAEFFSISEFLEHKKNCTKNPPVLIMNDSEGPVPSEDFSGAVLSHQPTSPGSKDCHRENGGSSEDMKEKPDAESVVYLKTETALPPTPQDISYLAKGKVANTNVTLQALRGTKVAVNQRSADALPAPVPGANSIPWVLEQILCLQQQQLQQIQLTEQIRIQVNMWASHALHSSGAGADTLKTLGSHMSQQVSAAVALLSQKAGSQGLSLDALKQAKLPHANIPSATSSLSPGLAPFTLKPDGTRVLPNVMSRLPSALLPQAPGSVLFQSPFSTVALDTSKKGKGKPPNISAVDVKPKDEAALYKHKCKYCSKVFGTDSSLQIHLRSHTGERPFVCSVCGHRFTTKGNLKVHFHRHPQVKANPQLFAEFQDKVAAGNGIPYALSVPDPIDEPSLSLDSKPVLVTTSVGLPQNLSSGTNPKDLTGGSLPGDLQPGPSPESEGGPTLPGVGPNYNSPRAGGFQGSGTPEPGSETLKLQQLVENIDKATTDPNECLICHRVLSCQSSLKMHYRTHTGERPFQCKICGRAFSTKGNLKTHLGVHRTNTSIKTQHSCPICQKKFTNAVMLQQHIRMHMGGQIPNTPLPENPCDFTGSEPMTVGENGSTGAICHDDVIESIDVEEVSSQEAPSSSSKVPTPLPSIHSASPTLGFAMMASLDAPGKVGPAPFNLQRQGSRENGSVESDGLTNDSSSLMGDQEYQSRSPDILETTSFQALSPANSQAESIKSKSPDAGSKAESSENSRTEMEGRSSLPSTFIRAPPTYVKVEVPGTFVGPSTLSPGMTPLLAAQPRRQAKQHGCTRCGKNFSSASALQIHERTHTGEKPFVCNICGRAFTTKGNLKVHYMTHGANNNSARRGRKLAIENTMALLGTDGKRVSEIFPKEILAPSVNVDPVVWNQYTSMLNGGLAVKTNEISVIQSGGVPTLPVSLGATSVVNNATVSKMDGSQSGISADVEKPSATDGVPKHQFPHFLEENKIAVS
Technique: universal PBM
Molecule type: double-stranded DNA, one strand shown
Matrix: in vitro
Tested at: 600 nM
Setting: 8-mer, flanks averaged, mean of replicates
Direction: higher = stronger binding
Oligonucleotide	E-score
GACTGAAC	-0.126
GGAGCAAA	0.0971
ACTCTAAA	0.166
CGTAACTC	-0.0997
GACAGCAA	0.105
GTGACATA	0.228
CCGCAACC	-0.207
ACTGCGCT	0.0457
ACCAGGAA	-0.118
CAAACTTC	0.0619
CACTTGTC	-0.0273
AACGTTGA	0.0878
GAGGGGCC	-0.412
CTCGAGGC	-0.245
CTACTCTC	-0.0185
CATCCGAC	-0.128
GAATCCGC	-0.277
ATCTAAAC	0.203
TACTAATA	0.317
TGCCAGCA	-0.0137
GTAGTCTA	0.0975
AAATCGTG	0.212

Study 3
Target: Ras GTPase-activating protein-binding protein 1, full length (G3BP1, Homo sapiens, UniProt Q13283)
Sequence of UniProt Q13283 (whole entry, looked up): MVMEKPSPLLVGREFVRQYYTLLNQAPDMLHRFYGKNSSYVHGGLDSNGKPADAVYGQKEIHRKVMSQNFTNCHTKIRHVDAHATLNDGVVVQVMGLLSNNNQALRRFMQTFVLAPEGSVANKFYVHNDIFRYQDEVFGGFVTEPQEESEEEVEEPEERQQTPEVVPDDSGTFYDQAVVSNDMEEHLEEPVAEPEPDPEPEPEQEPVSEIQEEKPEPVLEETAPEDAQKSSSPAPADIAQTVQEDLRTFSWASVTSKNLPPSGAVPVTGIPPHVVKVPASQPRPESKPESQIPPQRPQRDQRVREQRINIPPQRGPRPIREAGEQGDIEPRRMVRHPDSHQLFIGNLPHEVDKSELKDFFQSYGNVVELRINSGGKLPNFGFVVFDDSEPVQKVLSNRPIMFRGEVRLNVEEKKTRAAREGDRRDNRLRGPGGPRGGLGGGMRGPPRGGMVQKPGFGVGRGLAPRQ
Technique: RNA Bind-n-Seq
Molecule type: RNA
Matrix: in vitro
Tested at: 200 nM
Setting: whole 134-nt RNA, ends assumed
Together with: 150 mM KCl
Baseline: input library
Direction: higher = stronger binding
Constant ends, left off below: GGGAGUUCUACAGUCCGACGAUC … UGGAAUUCUCGGGUGUCAAGG
Oligonucleotide	log2 enrichment
GUCCUGUGCUACACAUCGUAUGUACCGAAUCGGGAAAAAAGGAAAAAAGGAAAAAAGGGAAAGUAUUAUGUUACGCCGUUCGGAUCUGCA	-0.677
UGGGAGGUGGAUUUUGUUUAUUUUUUUAGCUCAUUUCCAGGGGUGGGAAUUUUUUUUUAAUAUGUGUCAUGAAUAAAGUUGAUUUUGAAA	0.413
UAUUGAUGCAUUUGACCCUACACUGGCUCCAGCCACAGGAACUCCUGUUGUCGGGGGACUAACCUAUCGAGAAGGCAUGUAUAUUGCUGA	-0.618
GAAGGAAGUAAAAACAAAUGGAAAUGCUUCGGAUAGUGGCAGGGGUGGGGGUUGCUAAGGAAAGGGUGGGAUGGGAGUGGGUAAAGAGUU	0.737
UGUGCUACACAUCGUAUGUACCGAAUCGGGAAAAAAAGGGGAAAAAAAGGGGAAAAAAAGGGAAAGUAUUAUGUUACGCCGUUCGGAUCU	-0.558
CACAGACAACACGCACCCACACAGACACAGAGGGAAGGGGUUGGGAUGGGGACAGGGUGCACAGCAGGGCGGGGUGGGACCCCAGCCCCU	1.76
CACAGACAACACGCACCCACACAGACACAGAGGGAAGGGGUUGGGAUGGGGACAGGGUGCACAGCAGGACGGGGUAGGACCCCAGCCCCU	2.03
CAAGUCCUGUGCUACACAUCGUAUGUACCGAAUCGGGUGGGAGGGUUUUUUUGGGAAAGUAUUAUGUUACGCCGUUCGGAUCUGCACUUC	0.369
GCUGUGACCCCAACGCCGGUGCCCGUGGUCGGGAGCCAGAUGACCAGACAAGCCCGGCGCCUCUACGUGGGCAACAUCCCCUUUGGCAUC	-0.026
ACCAUGCAGGUGGGCAUCUUUGGGAAGUGCGGCAAGGGGGGGAUAGGGAGGGGGGUAACACUUUGGGAACAGGUGGUCCCAGGUCGUUUC	1.69
CAAGUCCUGUGCUACACAUCGUAUGUACCGAAUCGGGCCCGGGGCCCGGCCCGGGGAAAGUAUUAUGUUACGCCGUUCGGAUCUGCACUU	-1.04
UGCCUCUGCGGCUAGCUGAUUUUGGGGUACUUCAUAGGAACGAGCUGUCUGGAGCACUCACAGGACUCACCCGGGUACGAAGAUUCCAAC	-1.25
UCAAGUCCUGUGCUACACAUCGUAUGUACCGAAUCGGUUUGGGUUUGGUUUGGGGAAAGUAUUAUGUUACGCCGUUCGGAUCUGCACUUC	-0.703
CUGUGCUACACAUCGUAUGUACCGAAUCGGGGUUUUUUUGGGUUUUUUUGGGGUUUUUUUGGAAAGUAUUAUGUUACGCCGUUCGGAUCU	-0.662

Study 4
Target: RNA binding protein fox-1 homolog 2, RRM domain, GST-SBP tag (RBFOX2, Homo sapiens, UniProt O43251-10, residues 100-194)
Technique: RNA Bind-n-Seq
Molecule type: RNA
Matrix: in vitro
Tested at: 365 nM
Setting: natural RNA segment, single round, ends assumed
Baseline: no-protein control
Direction: higher = stronger binding
Constant ends, left off below: GGGAGUUCUACAGUCCGACGAUC … UGGAAUUCUCGGGUGCCAA
Target sequence (chain): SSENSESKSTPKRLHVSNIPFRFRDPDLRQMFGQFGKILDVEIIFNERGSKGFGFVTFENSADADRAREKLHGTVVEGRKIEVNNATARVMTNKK
Oligonucleotide	RBNS enrichment (R)
GAGGCAGAGGUGACAGUUCCCAGAGUGGGCUUUGGUGGCCAGGGAGGCAGCCUAGCCUAUGUCUGGCAGAUGAGGGCUGGCUGCCGUUUUCUGGGCUGAUGGGUGCCCUU	0.788
CCUAGGUCAGCGUGCAGAGCAGUGAUGCUGGAGGACACACCAUGGGGUGAAGCCAUCCCAAGGCUGACAGCUCAGUCUUCACCUUGCCUCUGGCCUUGUAUUUCACACCC	0.22
AGAUUGCCCGGUCCACGAGGGAAAUGCCCAGUGCCCUCAGCAUCCUUCUCCUUGGCGUGGCUUACUUCAAGGGGCAGUGGGUAACCAAGUUUGACUCGAGAAAGACGACC	0.982
CAUCCAGGGUCUUCAGUUUCCCGUGCUUGGCUCUUUGGGGUUCAUGUGUCAUGUUGCUUAUGACCCUAUCUGUGAAGCCGGCUCUGGAGUGACAGAGAGAACCUCAAAAA	0.296
AAAGAUAUAAGAAUAAUUUUUUAGUCCUAAAUGCUGUUUUGUUUACUUUCUGUCAAGAUAUUUACCCGUGUCAAAUUCAAACUACAGUACUGUGUAAUUAUGUAUAAAGU	0.642
GGUGGUAUGGCCAUAGACCAGAGCAACACAUUGAAAUGUAUACAGAUGUACUAGCUAAAGUCUCUUUAUGUGUCAGUAUUAAGAGUAAUAUGUAGCCAGAUUACUUAAAU	0.613
CACUAAGGGCUUCCACCACUGCUUCCAUGCAACCUCACGCCUGGCUCCUGCUUUGGAUCUAACAGCUGAGUCCAGACAGGCUCCCCACAGGUCACCCUUGCACGGGUUUG	1
UUGCCGCUUCAGACAGUACUGCGAGCAAUGGCUGCCUUGUCGGAGUGAGUGUGUAGCUGGACACCUUAGAGGACCCUAUGAAAUUGGAUAUGGAGACUGAUUUGGUGGGA	0.772
CAUAUACAUAUAUAUAUGGCCUUGUAAAACAGAUUUGAGACCUUGUGAAGAAAUGGAUAUGUUAUAUAUUUCUGCUACCUGGAUUUUCCUGGGUAAUUUGAUGGAAUAUU	0.534
AUUGAAUUAACUUGCAGUGGUGUGUUUGAUUCUUUUUUAGACUGGCUUCAGCAUUGUGCAGUUUAAAAAUAAGUAAGUAACUUACAUAAAUCUUCAAUUGUAUGAACUGC	0.669
UGGAAAUUAUUUAAUUAUUUUAAAACGUACACACUUUUCUUGUAAAUAUGUCACAUCUGAGUUCAAAAAAAUUACUUUGAAUACCUUAAUAUUUGCUGCAUUUUUUUCCG	0.546
UACCUAGGAACUGCCUCAACCUCCCACCAGUUCUUCCCUGCCCCUCCCUUCUGUCUAGAUUCACUUCAGUUUAUUGUUGGGAACUGUGCAGGUCCAAGACCUGGACUCCU	0.197

Study 5
Target: RING finger protein unkempt homolog, zinc fingers 1-6, GST-SBP tag (UNK, Homo sapiens, UniProt Q9C0B0, residues 30-357)
Technique: RNA Bind-n-Seq
Molecule type: RNA
Matrix: in vitro
Tested at: not given
Setting: RNA with constant flanks, human and mouse sites, ends assumed
Baseline: input RNA pool
Direction: higher = stronger binding
Constant ends, left off below: GGGAGUUCUACAGUCCGACGAUC … CAACAGAGGAUUGAGCAUCA
Residues (chain): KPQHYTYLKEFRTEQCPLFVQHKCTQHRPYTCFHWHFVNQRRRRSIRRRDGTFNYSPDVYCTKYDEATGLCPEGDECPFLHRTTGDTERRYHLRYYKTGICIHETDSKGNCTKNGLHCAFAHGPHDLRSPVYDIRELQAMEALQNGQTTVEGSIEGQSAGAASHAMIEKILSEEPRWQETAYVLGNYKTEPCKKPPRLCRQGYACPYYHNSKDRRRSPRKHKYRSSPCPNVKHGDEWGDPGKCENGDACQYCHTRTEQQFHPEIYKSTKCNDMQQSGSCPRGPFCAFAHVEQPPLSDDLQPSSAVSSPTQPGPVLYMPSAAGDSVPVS
Oligonucleotide	bound/input enrichment
UCACUUACUCGAAGUGGGAAGAGAAACAAGAUGUUAAGAAGUUCUUUGCCAUGGAGGGAAAAUAGUUGGGAAGGAUAUAGUGGAAAUGUGAAGAUCAGAAAGCGUAAUGAUAUUCCAUGC	0.384 ratio
CCCCUAUCUAGGCCUUCUUACGAGCCAAAACCUGCCCCUACUCCUCCUAGACCUAACCUGACUAGAAAAGCUAUUACCUAAAACAAUUUCACAGCACCAAAUCUCCACCUCCAUCAUCAC	15.6 ratio
GACACGUUUAUUCGAGUUCUGCAAAAAUUGAACAGUAUUCUGACUCAGCCUUGGAGGCUCCAUGUCAACAUGGGGACUACCCUUCACAGAGUUACUACUAUUUCAAUGGCUCGCUGCACA	0.138 ratio
UUUUCCUUCAACCCCAAGCUGGAUAAGGAAGAACGGGAGCAGGGCUGGUUGCUGGUUGACCUUAGUGAAGAAUACAAGCGAAUGGGCCUCCCUGAUAAUUAUUGGCAGCUCAGCGAUGUG	0.169 ratio
GCCUGGCUUGUGGAUCAUGUAUAUGCCAUCCGCGAGGCAGCCACCAGCAACCUGAAGAAGCUAGUGGAAAAGUUUGGGAAGGAGUGGGCCCAUGCCACAAUCAUCCCCAAGGUCUUGGCC	0.0852 ratio
GCUACUUCUGGUGAUAUUUGGCCUGGCCUUUCAGCUUAUGAUAAUAGUCCAAGGUCACCUCAUAGUCCUUCACCUAUUGCUACACCACCCAGUCAGAGUUCAUCAUGCUCAGAUGCCCCC	0.281 ratio
UUUUUGGGGAUUGCUUACAUCGCUGUUGGAUCCAUCUCCUUCCUUCUGGGAGUUGUACUGCUAGUAAUUAAUCAUAAAUAUAGAAACAGUAGUAAUACAGCUGACAUUACCAUUUAAUUU	5.11 ratio
GAAGCUGCAGCACUACUAGAAAGUGGUAGUUCAGUGGGCGAUGAGACCGAUCUUGCUAAUUUAGGGGAUGUAUCUUCUGAUGGGAAAAAGGAGCCUUCAGAUAAAGCUGUGAAAAAAGAU	0.922 ratio
UGGAAGUACAUCUUGUGGGAGGCUUCAGUGAUGACAGGCAGCUGUCACAGAAACUUACUCAUCAGCUUCUCAGUGAAUUUGACAAACAGGAUGAUGACAUUCACUUAGUGACAUUAUGUG	0.232 ratio
AAUCUCUCUCUGAAUCGUUAUUUCAUCAAAGUGCCGCGUUCCCAGGAAGAACCAGGCAAAGGCUCGUUCUGGAGGAUAGACCCAGCCUCUGAAAGCAAAUUAAUAGAACAGGCUUUUAGG	0.503 ratio
GCACUAGGGUAGAGAGAAAGCGGCACCAGCCAACGGCCUCUGUGCACGUGUGUGCUCUAGUAGCUCAGAGCAGCAAGAAGAAAUGGUUUCCUAUCUGCUGAGGCAAGGGAUGGCACUCGG	0.234 ratio

A few entries again (study 1):
Oligonucleotide	E-score
GGAAATTA	-0.051
CAATCTGG	-0.209
ACTGATAA	-0.0861
CCACAAGC	-0.064
TCCGTACA	0.242
GACCGGAC	0.153
CCCTATCC	-0.222
TGTTGAAA	0.0174
CAAGTTAG	-0.0694
AGAATGAG	-0.24
GAGGAGAA	-0.137
ACCGATCT	0.0526
GCTAATTA	0.0213
